Measured values pooled from the literature.
Compare with care: the assays were run in different laboratories. ± marks the error that the study gave.
Target: Albumin (ALB, Bos taurus, UniProt P02769)
Sequence of UniProt P02769 (whole entry, looked up): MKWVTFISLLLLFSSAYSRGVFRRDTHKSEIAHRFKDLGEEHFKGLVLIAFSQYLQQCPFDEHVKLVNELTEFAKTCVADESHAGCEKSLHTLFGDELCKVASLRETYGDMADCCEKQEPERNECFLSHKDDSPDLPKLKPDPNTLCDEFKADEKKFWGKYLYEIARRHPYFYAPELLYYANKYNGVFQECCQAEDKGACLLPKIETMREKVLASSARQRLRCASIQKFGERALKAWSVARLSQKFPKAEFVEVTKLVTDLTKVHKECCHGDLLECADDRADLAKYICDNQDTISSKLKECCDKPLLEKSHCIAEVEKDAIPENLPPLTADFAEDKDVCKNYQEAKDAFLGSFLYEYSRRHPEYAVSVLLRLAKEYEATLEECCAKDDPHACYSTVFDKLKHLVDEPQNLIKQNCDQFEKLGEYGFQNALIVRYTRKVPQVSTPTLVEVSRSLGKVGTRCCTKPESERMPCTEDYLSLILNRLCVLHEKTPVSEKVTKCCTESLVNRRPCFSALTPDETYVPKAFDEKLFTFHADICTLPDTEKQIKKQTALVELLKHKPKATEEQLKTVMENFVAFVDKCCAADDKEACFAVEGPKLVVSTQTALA

| SMILES | assay | conditions | measurement | value |
| --- | --- | --- | --- | --- |
| CC(=O)[O-].O.O.O.O.[Co+2].[O-]c1ccc(Br)cc1C=NCCN1CCOCC1 | UV absorption titration | – | Gibbs free energy change | -5.93 kcal/mol |
| Cc1ccc(C(C)C)cc1.[Cl-].[Cl][Ru+].[Ru+].c1ccc(-c2cn(CCCCOc3ccccc3-c3nc4ccccc4s3)nn2)nc1 | tryptophan fluorescence quenching | – | Stern-Volmer constant | 137000 M⁻¹ |
| O=C(O[C@@H]1Cc2c(O)cc(O)cc2O[C@@H]1c1cc(O)c(O)c(O)c1)c1cc(O)c(O)c(O)c1 | binding, fluorescence quenching, refers to: BSA tryptophan fluorescence | 25 µM, pH 7.4 | emission maximum | 365 nm |
| CCCCCCCCCCCCCC(=O)Nc1ccccc1SSc1ccccc1NC(=O)CCCCCCCCCCCCC | binding, fluorescence quenching | 313 K | Gibbs free energy change | -7.04 kcal/mol |
| COC(=O)c1cnc(-c2cnccn2)cc1C(=O)OC.COC(=O)c1cnc(-c2cnccn2)cc1C(=O)OC.[Cl-].[Cl-].[Cl-].[Cl-].[Cu+2].[Cu+2] | fluorescence quenching | pH 7.4, BSA 5 µM | Stern-Volmer constant | 874000 ± 13000 M⁻¹ |
| CCCCCCCCCCCC(=O)Nc1ccccc1SSc1ccccc1NC(=O)CCCCCCCCCCC | binding, fluorescence quenching | 298 K | Gibbs free energy change | -11.8 kcal/mol |
| CC1=[N+]2N=C(c3ccccc3)[O][Pd-2]2([Cl])[O+]=C2Oc3ccccc3C=C21 (stereo not drawn) | UV-visible absorption titration | concentration not given, 278 nm | hyperchromism | 36% |
| CCCCCCCCCCCCCCCC(=O)Nc1ccccc1SSc1ccccc1NC(=O)CCCCCCCCCCCCCCC | binding, van't Hoff | concentration not given, 298-313 K | enthalpy change | -23.2 kcal/mol |
| O=C([O-])CN1CCN(CC(=O)[O-])CCN(C(CCC(=O)NC(Cc2c[nH]c3ccc(O)cc23)C(=O)NCCc2c[nH]c3ccc(O)cc23)C(=O)O)CCN(CC(=O)[O-])CC1.[Gd+3] (stereo not drawn) | binding | concentration not given, 1 h, 40 °C, no BSA, added: MPO, glucose oxidase, glucose | T1 shortening | 80% |

Repeated from above:
| SMILES | assay | conditions | measurement | value |
| --- | --- | --- | --- | --- |
| O=C(O[C@@H]1Cc2c(O)cc(O)cc2O[C@@H]1c1cc(O)c(O)c(O)c1)c1cc(O)c(O)c(O)c1 | binding, fluorescence quenching, refers to: BSA tryptophan fluorescence | 25 µM, pH 7.4 | emission maximum | 365 nm |
